Results collected from several papers.
Protocols differ between the studies behind these lines. Numbers after ± are the reported error.

Compound	test	system	conditions	how to read	endpoint	value
Cc1nnc(-c2ccc(CC(=O)NCCNC(=O)[C@H](CCCCNC(=O)CNC(=O)[C@H](CCCCN)NC(=O)[C@H](CC(=O)O)NC(=O)[C@H](CC(=O)O)NC(=O)[C@H](CC(=O)O)NC(=O)[C@H](CC(=O)O)NC(=O)[C@H](CCCCN)NC(=O)[C@H](Cc3ccc(O)cc3)NC(=O)[C@@H](N)CC(=O)O)NC(=O)[C@H](Cc3ccccc3)NC(=O)[C@H](Cc3ccccc3)NC(=O)Cc3ccc4ccccc4c3)cc2)nn1	chemical stability, mass spectrometry	human, serum	200 µM, 4 h		compound remaining	~70%
CCCC(=O)OC1O[C@@H]2O[C@@]3(C)CC[C@H]4[C@H](C)CCC([C@H]1C)[C@@]24OO3 (stereo partly drawn)		Tg(fli1:EGFP) zebrafish embryos	50 µg/mL, up to 48 hpf		dead embryos	5 count
O=C(O)Cc1cccc(OC(=O)NCCCCCn2ccc3ccc(F)cc32)c1		PBS with Triton X-100	20 µM, 60 min, pH 7.4		parent remaining	> 95%
CC[C@@]1(O)C(=O)OCc2c1cc1n(c2=O)Cc2c-1nc1cc(F)c(C)c3c1c2[C@@H](NC(=O)CCCN)CC3		PAMPA	5 µM, 4 h, pH 5		Papp	< 0.1 ×10⁻⁶ cm/s
CCCCCCCC(=O)OC[C@H](NC(=O)[C@H](CO)NC(=O)CN)C(=O)N[C@@H](Cc1ccccc1)C(=O)N[C@@H](CC(C)C)C(=O)N[C@@H](CO)C(=O)N1CCC[C@H]1C(=O)N[C@@H](CCC(=O)O)C(=O)N[C@@H](Cc1cnc[nH]1)C(=O)N[C@@H](CCC(N)=O)C(=O)N[C@@H](CCCNC(=N)N)C(=O)N[C@H](C(=O)N[C@@H](CCC(N)=O)C(=O)N[C@@H](CCC(N)=O)C(=O)N[C@@H](CCCNC(=N)N)C(=O)N[C@@H](CCCCN)C(=O)N[C@@H](CCC(=O)O)C(=O)N[C@@H](CO)C(=O)N[C@@H](CCCCN)C(=O)N[C@@H](CCCCN)C(=O)N1CCC[C@H]1C(=O)N1CCC[C@H]1C(=O)N[C@@H](C)C(=O)N[C@@H](CCCCN)C(=O)N[C@@H](CC(C)C)C(=O)N[C@@H](CCC(N)=O)C(=O)N1CCC[C@H]1C(=O)N[C@@H](CCCNC(=N)N)C(=O)O)C(C)C	two-site ELISA, item: DAG	human, plasma	intravenous infusion, 1 µg/kg/h, 210 min		Cmax	1.29 ± 1.12 ng/mL
C[C@]12CC[C@H](O)CC1CCC1C2[C@H](O)C(=O)[C@]2(C)[C@@H](c3ccc(=O)oc3)CC[C@]12O (stereo partly drawn)	sulfation, substrate	pig liver cytosol	pH 7.4		Km	137 ± 10.9 µM
COc1cc2ncnc(Oc3cccc(N[11C](=O)Nc4cc(C(C)(C)C(F)(F)F)on4)c3)c2cc1OC		female Balb/c nude mice, plasma	intravenous, dose not given, 30 min		radioactivity	1.5 ± 0.11 %ID/g
C/C=C/C=C/C/C=C/CCCCCCCc1cccc(O)c1O		Wistar rat, male, plasma	intravenous, 20 mg/kg		volume of distribution	1.23 ± 0.05 L/kg
CC[C@H](C)[C@H](NC(=O)[C@H](C)NC(=O)[C@H](CCCCN)NC(=O)[C@H](CC(C)C)NC(=O)[C@H](Cc1ccccc1)NC(=O)[C@@H](N)CC[Se]C)C(=O)N[C@@H](CCCCN)C(=O)N[C@@H](CCCCN)C(=O)N[C@@H](Cc1ccccc1)C(=O)NCC(=O)N[C@@H](CCCCN)C(=O)N[C@@H](CCC(=O)O)C(=O)N[C@@H](Cc1ccccc1)C(=O)N[C@@H](CCCCN)C(=O)N[C@@H](CCCCN)C(=O)N[C@H](C(=O)NCC(=O)N[C@@H](C)C(=O)N[C@@H](CCCCN)C(=O)N[C@@H](CC(C)C)C(=O)N[C@@H](CCCCN)C(=O)O)[C@@H](C)CC	item: selenium	mice, serum	intraperitoneal, 70 mg/kg		time to complete elimination	10 min
O=C1Cc2cc(CCN3CCN(C4=NS(=O)(=O)c5ccccc54)CC3)c(Cl)cc2N1		human liver cytosol	1 µM, 30 min, 1 mg/mL protein		percent metabolized	39.2%
CCCCCCCCCCCCCCC(=O)O.O=C1CCCC2C3CCCN4CCCC(CN12)C34 (stereo not drawn)	shake-flask	simulated intestinal fluid	pH 6.8, 25 °C		log octanol-water partition coefficient	-0.23
COc1cc(NC(=O)C(=O)c2c(C)n(Cc3ccc(Cl)cc3)c3ccc(C)cc23)ccn1		female cynomolgus monkey, plasma	oral, 10 mg/kg		CL/F	49.1 mL/min/kg
CC[C@H](C)[C@H](NC(=O)[C@H](CCCNC(=N)N)NC(=O)[C@H](CC(C)C)NC(=O)[C@H](Cc1ccccc1)NC(=O)CNC(=O)CNC(=O)[C@@H](N)Cc1ccc(O)cc1)C(=O)N[C@@H](CCCNC(=N)N)C(=O)N1CCC[C@H]1C(=O)N[C@@H](CCCCN)C(=O)O		rat plasma	37 °C	relative to: compound over parent fragment	plasma half-life ratio	6 fold
COc1ccc(C2=Nn3c(NN=C4C(=O)N(C)c5ccc(Br)cc54)nnc3SC2)cc1		chick embryo, chorioallantoic membrane	40 µM		toxicity	toxic
NC(=O)[C@@H](CCCCNC(=O)CNC(=O)CCC(=O)NCCc1c[nH]cn1)NC(=O)[C@@H](Cc1ccc(O)cc1)NC(=O)[C@@H](CCCCNC(=O)CNC(=O)CCC(=O)NCCc1c[nH]cn1)NC(=O)Cc1ccc(CN2CCN(CC(=O)O)CCN(CC(=O)O)CC2)cc1 [fluorine-18 labelled]		tumour-bearing nude mice	intravenous, 3 h, TF2 pretargeting	relative to: tumour over kidney	tissue ratio	12 ± 3
O=c1cc(-c2ccccc2)oc2c(Br)c(O)c(O)c(O)c12	mass spectrometry	C57BL/6 mouse, plasma	oral, 250 mg/kg, 12 h, single dose		concentration	2080 ng/mL
CN(C)C(CNC(=O)Nc1cc(C(F)(F)F)ccc1N1CCOCC1)c1ccncc1 (stereo not drawn)		mouse, serum	intraperitoneal, 360 mg/kg single dose		serum indirect bilirubin	0.4 mg/dL
C1=C(c2cc3c(Nc4ccc5scnc5c4)ncnc3s2)CCNC1		BALB/c mouse, plasma	oral, 10 mg/kg, 6 h		concentration	172 ng/mL
CC[C@H](C)C(=O)N1CCC(NC(=O)Nc2ccc(OC(F)(F)F)c(F)c2)CC1		healthy volunteers, both sexes	oral, 8 mg single dose, fed state		participants with any Severe TEAE	0%
COc1ccc2sc3c(c2c1)SCCNC3=O		mouse	oral, 25 mg/kg		oral bioavailability	1.7%
Cc1ccc(/C=C/C(=O)O)cc1-c1cc2c(cc1C)C(C)(C)CCC2(C)C		Sprague-Dawley rat, male, plasma	oral, 100 mg/kg, 1 h, sesame oil vehicle		HDL level	79 ± 13.2 mg/dL

For quick reference, copied from above:
Compound	test	system	conditions	how to read	endpoint	value
CC[C@H](C)[C@H](NC(=O)[C@H](C)NC(=O)[C@H](CCCCN)NC(=O)[C@H](CC(C)C)NC(=O)[C@H](Cc1ccccc1)NC(=O)[C@@H](N)CC[Se]C)C(=O)N[C@@H](CCCCN)C(=O)N[C@@H](CCCCN)C(=O)N[C@@H](Cc1ccccc1)C(=O)NCC(=O)N[C@@H](CCCCN)C(=O)N[C@@H](CCC(=O)O)C(=O)N[C@@H](Cc1ccccc1)C(=O)N[C@@H](CCCCN)C(=O)N[C@@H](CCCCN)C(=O)N[C@H](C(=O)NCC(=O)N[C@@H](C)C(=O)N[C@@H](CCCCN)C(=O)N[C@@H](CC(C)C)C(=O)N[C@@H](CCCCN)C(=O)O)[C@@H](C)CC	item: selenium	mice, serum	intraperitoneal, 70 mg/kg		time to complete elimination	10 min
O=C1Cc2cc(CCN3CCN(C4=NS(=O)(=O)c5ccccc54)CC3)c(Cl)cc2N1		human liver cytosol	1 µM, 30 min, 1 mg/mL protein		percent metabolized	39.2%
